{"data": "Experimental data gathered from unrelated publications", "note": "Lines come from different studies, so protocols differ. ± marks the error that the study gave.", "sequence of UniProt P21729 (whole entry, looked up)": "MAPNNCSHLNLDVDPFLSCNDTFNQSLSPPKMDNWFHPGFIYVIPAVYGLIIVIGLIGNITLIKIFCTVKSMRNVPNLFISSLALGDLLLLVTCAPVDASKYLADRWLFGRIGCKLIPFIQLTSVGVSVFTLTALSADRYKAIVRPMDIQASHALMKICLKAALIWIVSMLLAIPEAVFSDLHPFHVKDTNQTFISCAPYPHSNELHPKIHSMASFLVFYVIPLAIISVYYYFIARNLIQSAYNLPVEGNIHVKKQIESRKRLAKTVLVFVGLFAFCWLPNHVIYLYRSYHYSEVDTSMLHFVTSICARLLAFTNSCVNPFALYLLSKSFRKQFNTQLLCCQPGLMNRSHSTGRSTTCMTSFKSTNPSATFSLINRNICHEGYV"}
{"SMILES": "CSCC[C@H](NC(=O)CNC(=O)[C@H](CC(=O)O)NC(=O)[C@@H](NC(=O)[C@@H](NC(=O)[C@@H](NC(=O)CNC(=O)[C@H](CCC(N)=O)NC(=O)[C@H](CCSC)NC(=O)[C@H](CC(=O)O)NC(=O)[C@H](C)NC(=O)[C@H](C)NC(=O)[C@@H](NC(=O)[C@H](CO)NC(=O)[C@@H](N)CC(C)C)[C@@H](C)O)C(C)C)C(C)C)[C@@H](C)O)C(=O)N[C@@H](C)C(=O)N[C@@H](CO)C(=O)NCC(=O)N[C@@H](CC(C)C)C(=O)N[C@@H](CC(=O)O)C(=O)N[C@@H](CCCCN)C(=O)N[C@@H](CC(=O)O)C(=O)N[C@@H](Cc1ccc(O)cc1)C(=O)N[C@@H](CC(C)C)C(=O)N[C@@H](CCCCN)C(=O)N1CCC[C@H]1C(=O)N[C@@H](CC(=O)O)C(=O)N[C@@H](CC(=O)O)C(=O)O", "test system": "patients with progressive disease, p53-positive solid tumours", "setting": "dose not given, deceased patients", "measurement": "survival", "value": "12 to 32 weeks"}
{"SMILES": "CC[C@H](C)[C@H](NC(=O)[C@H](Cc1c[nH]c2ccccc12)NC(=O)[C@H](CCCNC(=N)N)NC(=O)[C@H](CCCCN)NC(=O)[C@H](CC(C)C)NC(=O)[C@H](CC(=O)O)NC(=O)[C@H](Cc1ccccc1)NC(=O)[C@H](C)NC(=O)[C@H](Cc1ccc(O)cc1)NC(=O)[C@H](CC(N)=O)NC(=O)[C@H](Cc1ccc(O)cc1)NC(=O)[C@H](CCCNC(=N)N)NC(=O)[C@H](Cc1ccc(O)cc1)NC(=O)[C@H](Cc1ccc(O)cc1)NC(=O)[C@@H](NC(=O)[C@H](CC(C)C)NC(=O)[C@H](C)NC(=O)[C@H](CC(N)=O)NC(=O)[C@H](Cc1ccc(O)cc1)NC(C)=O)[C@@H](C)CC)C(=O)N[C@@H](Cc1ccc(O)cc1)C(=O)N[C@@H](CC(C)C)C(N)=O", "test": "refers to: HA-52 tetramer", "test system": "antigen-experienced tetramer+ CD4 T cells, healthy adults, HLA-DRB1*0101", "setting": "dose not given", "measurement": "α4β7+ CCR9− cells", "value": "35.7%"}
{"SMILES": "CCCNC(=O)[C@H](CC(C)C)NC(=O)[C@H](Cc1c[nH]cn1)NC(=O)CNC(=O)[C@@H](NC(=O)[C@H](C)NC(=O)[C@H](Cc1c[nH]c2ccccc12)NC(=O)[C@H](CCC(N)=O)NC(=O)[C@@H](Cc1ccccc1)NC(=O)CCCCCNC(=O)CN1CCN(CC(=O)O)CCN(CC(=O)O)CCN(CC(=O)O)CC1)C(C)C [indium-111 labelled]", "target or system": "Gastrin-releasing peptide receptor (Mus musculus, UniProt P21729)", "test": "biodistribution", "test system": "CF-1 mice, liver", "setting": "intravenous, 1 h, unblocked", "measurement": "tissue uptake", "value": "0.26 ± 0.07 %ID/g"}
{"SMILES": "CC(C)[C@H](NC(=O)CNC(=O)[C@H](CCC(N)=O)NC(=O)[C@H](C)N)C(=O)O", "test system": "human", "setting": "30 mg/kg thrice daily, 3 days", "measurement": "unlikely related or unrelated adverse events", "value": "71.4%"}
{"SMILES": "C[C@@](O)(C(F)F)[C@H](NC(=O)c1ccc(C#CC#CC2CC2)cc1)C(=O)NO", "test system": "dog, plasma", "setting": "intravenous, 10 mg/kg", "measurement": "half-life", "value": "1.4 h"}
{"SMILES": "CCN(Cc1ccccc1)C(=O)CCc1nc(CN2CCN(C(=O)Cc3ccc(OC)c(OC)c3)CC2)no1", "test": "current clamp", "test system": "L4-L6 DRG neurons, rat CCI model", "setting": "3 µM, added: 500 pA current injection", "measurement": "action potential number", "value": "0.3 ± 0.17"}
{"SMILES": "CC(C)C[C@@H]1NC(=O)[C@H](C(C)C)NC(=O)[C@H](CO)NC(=O)CNC(=O)CNC(=O)[C@H](CCCNC(=N)N)NC(=O)[C@@H]2CCCN2C(=O)[C@@H](NC(=O)CC[C@H](NC(=O)c2ccc(N(C)Cc3cnc4nc(N)nc(N)c4n3)cc2)C(=O)O)C(C)(C)SSC[C@@H](C(=O)O)NC(=O)CNC(=O)[C@H]([C@@H](C)O)NC(=O)[C@H](C(C)C)NC1=O", "test system": "rat adjuvant arthritis", "setting": "0.5 to 1.0 mg/kg", "how to read": "baseline: vehicle", "measurement": "paw weight reduction", "value": "7 to 11%"}
{"SMILES": "CCOP(=O)(OCC)OCCCCOC(=O)CC1=C(C)/C(=C/c2ccc([S+](C)[O-])cc2)c2ccc(F)cc21 (stereo not drawn)", "test": "bone resorption", "test system": "rat, Freund's adjuvant arthritis", "setting": "oral, 50 mg/kg once daily, prevention protocol", "measurement": "inhibition", "value": "40%"}
{"SMILES": "Nc1ccc(/C=C/C(=O)N2CCc3c(oc4c(-c5ccc(F)cc5)cc(-c5ccc(C(=O)N6CCC(F)(F)CC6)cn5)cc34)C2)cn1", "target or system": "MIA PaCa-2", "test": "western blot, refers to: BCL-XL", "setting": "concentration not given", "measurement": "protein level", "value": "decreased"}
{"SMILES": "O=C(N[C@@H](Cc1coc2ccccc12)B(O)O)[C@@H]1C[C@H]2CC[C@@H]1O2", "test system": "mouse, disseminated MM1.S model", "setting": "oral, 10 mg/kg, 5 consecutive days weekly", "how to read": "baseline: vehicle", "measurement": "median survival prolongation", "value": "13 days"}
{"SMILES": "CC[C@@]1(O)C(=O)OCc2c1cc1n(c2=O)Cc2cc3cc(OC(=O)CCCC(=O)NCC(=O)N[C@@H](Cc4ccccc4)C(=O)N[C@@H](Cc4ccccc4)C(=O)N[C@@H](Cc4ccc(OP(=O)(O)O)cc4)C(=O)NCCSSCCNC(=O)CCC(=O)N[C@@H](CCC(=O)O)C(=O)N[C@@H](CCCNC(=N)N)C(=O)NCC(=O)N[C@@H](CC(=O)O)C(=O)O)ccc3nc2-1", "test system": "nude mice, HepG2 xenograft", "setting": "intravenous, 3 mg/kg HCPT equivalent, day 9, three doses, initial 60 mm^3", "measurement": "tumour volume", "value": "~5 mm³"}
{"SMILES": "N=C(N)NCCC[C@H](NC(=O)[C@@H]1CCCN1C(=O)[C@@H]1CSSC[C@H](N)C(=O)N[C@@H](Cc2ccc(O)cc2)C(=O)N[C@@H](Cc2ccccc2)C(=O)N[C@@H](CCC(N)=O)C(=O)N[C@@H](CC(N)=O)C(=O)N1)C(=O)NCC(N)=O", "test system": "male Sprague-Dawley rat, conscious", "setting": "intra-arterial, 100 ng/kg", "how to read": "baseline: pre-injection baseline", "measurement": "peak heart rate decrease", "value": "99 beats/min"}
{"SMILES": "CCCCCCCCC=CCCCCCCCC(=O)OCC1OC(n2ccc(N)nc2=O)C(F)(F)C1O (stereo not drawn)", "test": "xenograft", "test system": "mice, NCI-H146 xenograft", "setting": "ip, MTD", "measurement": "antitumour activity", "value": "inactive"}
{"SMILES": "Clc1ccc(NN=C(c2ccccc2)c2ccccn2)nc1", "test system": "BALB/c mouse, orthotopic 4T1 mammary tumour", "setting": "oral gavage, dose not given", "measurement": "median survival", "value": "33 days"}
{"SMILES": "CN[C@](C)(C[18F])C(=O)O", "target or system": "SK-OV-3 tumour model", "test system": "host not given, liver", "setting": "30 min, tumour-bearing", "measurement": "tracer uptake", "value": "5.1 %ID/g"}
